Experimental data collected from several papers.
Parts stem from different laboratories: compare values within a part only. “And” joins repeats or separate records; there may be more than shown.
UniProt P10721, sequence (whole entry, unmodified, looked up): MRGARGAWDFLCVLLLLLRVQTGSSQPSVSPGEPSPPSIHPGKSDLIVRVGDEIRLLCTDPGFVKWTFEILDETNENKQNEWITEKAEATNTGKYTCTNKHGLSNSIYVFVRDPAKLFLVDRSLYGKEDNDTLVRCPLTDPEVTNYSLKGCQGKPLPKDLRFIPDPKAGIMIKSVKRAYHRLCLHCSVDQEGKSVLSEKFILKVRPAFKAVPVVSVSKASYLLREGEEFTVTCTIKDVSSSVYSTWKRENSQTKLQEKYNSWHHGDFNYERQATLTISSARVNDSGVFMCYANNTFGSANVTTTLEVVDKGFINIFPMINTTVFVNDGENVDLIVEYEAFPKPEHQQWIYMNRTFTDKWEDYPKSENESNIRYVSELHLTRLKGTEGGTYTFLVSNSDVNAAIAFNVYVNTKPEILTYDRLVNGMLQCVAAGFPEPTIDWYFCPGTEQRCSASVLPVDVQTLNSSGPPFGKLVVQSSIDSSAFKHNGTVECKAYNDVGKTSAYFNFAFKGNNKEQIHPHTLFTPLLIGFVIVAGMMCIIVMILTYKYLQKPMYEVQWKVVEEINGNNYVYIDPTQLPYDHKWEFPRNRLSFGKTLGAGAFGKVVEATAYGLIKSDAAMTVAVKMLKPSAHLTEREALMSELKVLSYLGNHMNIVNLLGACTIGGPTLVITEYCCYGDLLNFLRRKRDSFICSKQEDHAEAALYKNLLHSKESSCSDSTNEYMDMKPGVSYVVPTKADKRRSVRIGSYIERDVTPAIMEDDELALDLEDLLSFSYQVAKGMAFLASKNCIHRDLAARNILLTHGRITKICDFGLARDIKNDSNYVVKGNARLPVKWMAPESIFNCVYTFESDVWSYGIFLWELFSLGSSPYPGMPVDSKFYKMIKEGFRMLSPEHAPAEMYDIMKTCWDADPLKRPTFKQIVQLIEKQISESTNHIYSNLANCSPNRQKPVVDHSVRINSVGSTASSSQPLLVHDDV
UniProt P11309, sequence (whole entry, looked up): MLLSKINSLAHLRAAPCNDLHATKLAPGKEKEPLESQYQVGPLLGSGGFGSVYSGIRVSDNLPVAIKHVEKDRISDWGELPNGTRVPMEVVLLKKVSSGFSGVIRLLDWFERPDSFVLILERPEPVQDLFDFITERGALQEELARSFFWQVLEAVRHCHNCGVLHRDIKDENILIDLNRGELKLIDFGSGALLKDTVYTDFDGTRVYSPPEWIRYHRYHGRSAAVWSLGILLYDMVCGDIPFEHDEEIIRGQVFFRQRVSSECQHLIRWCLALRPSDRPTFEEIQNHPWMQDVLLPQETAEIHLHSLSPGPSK

Series 1 — host: human; medium: microsomes or S9; concentration: 2 µM; time: 0.5 h
`O=C(NCCc1ccccc1)N1Cc2c(sc3c2CCCC3)-n2cccc2C1c1cccs1` (stereo not drawn) gave a remaining compound of 2.21%.
With `CC1c2cccn2-c2sc3c(c2CN1C(=O)NC1CCCC1)CCCC3` (stereo not drawn) the remaining compound was < 1%.
`Cn1c(=O)n(-c2ncccc2C#N)c2ccccc21` gave a remaining compound of 45.7%.
With `CCOc1cccc(C2c3cccn3-c3sc4c(c3CN2C(=O)NCc2ccc(C)cc2)CCCC4)c1` (stereo not drawn) the remaining compound was 14.1%.
`COc1cc(=O)n(-c2ccccc2)cc1C(=O)N1CCC(N2CCc3ccccc3C2)C1` (stereo not drawn) has a remaining compound of 67.1%.
`CCOC(=O)C1CCN(c2nccc3c2OC(C)(C)C=C3)CC1` has a remaining compound of 0.178%.

Series 2 — effect on: enzyme activity; action: inhibitor; concentration: 77 µM; baseline: untreated
Target: DNA polymerase theta, ATPase domain (POLQ, Homo sapiens, UniProt O75417)
UniProt O75417, sequence (whole entry, unmodified, looked up): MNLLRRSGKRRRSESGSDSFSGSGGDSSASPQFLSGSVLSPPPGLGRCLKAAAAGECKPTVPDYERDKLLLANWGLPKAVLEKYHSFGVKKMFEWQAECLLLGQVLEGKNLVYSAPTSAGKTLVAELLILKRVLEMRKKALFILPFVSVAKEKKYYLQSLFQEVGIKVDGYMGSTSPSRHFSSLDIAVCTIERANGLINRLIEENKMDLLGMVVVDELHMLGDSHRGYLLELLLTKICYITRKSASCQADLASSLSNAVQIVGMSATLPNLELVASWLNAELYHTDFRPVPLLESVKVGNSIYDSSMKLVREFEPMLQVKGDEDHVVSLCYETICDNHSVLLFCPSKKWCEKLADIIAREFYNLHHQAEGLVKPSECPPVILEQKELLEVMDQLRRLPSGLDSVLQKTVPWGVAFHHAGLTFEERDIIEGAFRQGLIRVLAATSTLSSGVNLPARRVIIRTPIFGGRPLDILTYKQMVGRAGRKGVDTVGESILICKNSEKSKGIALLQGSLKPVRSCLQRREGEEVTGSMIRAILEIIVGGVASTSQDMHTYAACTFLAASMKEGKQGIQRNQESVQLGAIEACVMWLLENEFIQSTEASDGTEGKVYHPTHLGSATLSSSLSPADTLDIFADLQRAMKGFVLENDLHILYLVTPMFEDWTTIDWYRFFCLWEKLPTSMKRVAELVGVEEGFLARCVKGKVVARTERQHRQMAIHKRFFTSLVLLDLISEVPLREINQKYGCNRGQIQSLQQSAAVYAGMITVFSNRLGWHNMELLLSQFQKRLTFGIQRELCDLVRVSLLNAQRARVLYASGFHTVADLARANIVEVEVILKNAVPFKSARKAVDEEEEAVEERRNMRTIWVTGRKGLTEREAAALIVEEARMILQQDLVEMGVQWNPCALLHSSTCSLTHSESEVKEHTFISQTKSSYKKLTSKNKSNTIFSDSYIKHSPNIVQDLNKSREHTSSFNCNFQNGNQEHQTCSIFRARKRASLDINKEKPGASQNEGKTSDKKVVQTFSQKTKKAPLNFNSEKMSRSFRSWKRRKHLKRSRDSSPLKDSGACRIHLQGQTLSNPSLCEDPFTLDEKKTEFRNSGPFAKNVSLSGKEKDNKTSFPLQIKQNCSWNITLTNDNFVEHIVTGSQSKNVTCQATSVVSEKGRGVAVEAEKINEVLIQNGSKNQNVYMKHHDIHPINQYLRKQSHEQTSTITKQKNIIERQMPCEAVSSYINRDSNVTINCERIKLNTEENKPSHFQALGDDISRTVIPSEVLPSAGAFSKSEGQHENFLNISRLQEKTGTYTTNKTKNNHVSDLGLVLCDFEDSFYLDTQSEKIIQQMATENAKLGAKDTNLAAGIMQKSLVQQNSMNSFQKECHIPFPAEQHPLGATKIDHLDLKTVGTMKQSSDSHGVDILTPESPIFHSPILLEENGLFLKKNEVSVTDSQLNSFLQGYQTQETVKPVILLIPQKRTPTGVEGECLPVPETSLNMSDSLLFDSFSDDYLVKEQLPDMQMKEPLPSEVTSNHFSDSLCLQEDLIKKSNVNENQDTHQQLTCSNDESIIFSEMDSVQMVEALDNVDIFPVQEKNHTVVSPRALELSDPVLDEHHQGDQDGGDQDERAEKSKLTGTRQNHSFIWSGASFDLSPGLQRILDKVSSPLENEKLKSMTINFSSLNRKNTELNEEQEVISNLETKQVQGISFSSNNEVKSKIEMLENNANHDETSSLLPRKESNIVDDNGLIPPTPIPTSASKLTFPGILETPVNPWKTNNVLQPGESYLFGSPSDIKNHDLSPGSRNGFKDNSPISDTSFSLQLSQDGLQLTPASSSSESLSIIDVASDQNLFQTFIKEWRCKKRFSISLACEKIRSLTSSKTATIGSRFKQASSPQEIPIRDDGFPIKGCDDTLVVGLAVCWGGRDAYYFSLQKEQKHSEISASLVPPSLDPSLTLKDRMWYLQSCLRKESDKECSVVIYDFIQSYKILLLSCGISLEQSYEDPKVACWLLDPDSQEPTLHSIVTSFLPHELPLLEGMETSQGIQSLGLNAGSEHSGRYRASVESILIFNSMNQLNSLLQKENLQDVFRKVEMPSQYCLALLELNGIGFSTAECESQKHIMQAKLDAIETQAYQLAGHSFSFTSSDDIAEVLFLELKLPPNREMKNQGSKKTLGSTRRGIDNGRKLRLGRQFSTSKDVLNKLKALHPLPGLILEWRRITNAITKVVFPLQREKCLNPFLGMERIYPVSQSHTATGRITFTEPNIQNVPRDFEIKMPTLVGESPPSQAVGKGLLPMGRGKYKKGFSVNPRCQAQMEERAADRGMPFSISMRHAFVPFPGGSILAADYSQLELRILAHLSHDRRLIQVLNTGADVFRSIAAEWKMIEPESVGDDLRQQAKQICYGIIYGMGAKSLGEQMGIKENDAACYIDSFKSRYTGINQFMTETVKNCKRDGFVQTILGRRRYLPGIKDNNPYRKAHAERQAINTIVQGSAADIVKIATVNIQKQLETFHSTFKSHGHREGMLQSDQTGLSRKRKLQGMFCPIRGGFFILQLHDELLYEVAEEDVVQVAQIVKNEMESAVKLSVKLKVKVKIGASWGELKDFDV
For `O=C1Nc2ccccc2/C1=C1/Nc2ccccc2C1=O`, the remaining activity was 89.8%.
`O=C(O)c1cccnc1C(=O)O` has a remaining activity of 103%.
`C[C@]12C=CC(=O)N[C@@H]1CC[C@@H]1[C@@H]2CC[C@]2(C)[C@@H](C(=O)Nc3cc(C(F)(F)F)ccc3C(F)(F)F)CC[C@@H]12` has a remaining activity of 90.8%.

Series 3 — organism: Sarcocystis neurona; effect on: parasite activity; concentration: 10 µM; time: 96 h
Under activity class, `Nc1nc(N)c2nc(-c3ccccc3)c(N)nc2n1` is recorded as “inactive”.
For `COc1cc2nc(N3CCN(C(=O)C4COc5ccccc5O4)CC3)nc(N)c2cc1OC` (stereo not drawn), activity class read “inactive”.
For `Cc1cccc(C)c1NC(=O)C(C)N` (stereo not drawn), activity class read “inactive”.
`Cc1ccc(Cl)c(Nc2ccccc2C(=O)O)c1Cl`: activity class “inactive”.

Series 4 — cell line: mouse MPNST tumor cells; method: high-content nuclear imaging; measured: cell number; concentration: 10 µM; time: 12 h; notes: mean of 2 replicates; baseline: plate mean; direction: higher = more cells
The nuclei count of `O=C(O)c1cc(/N=N/c2ccc(S(=O)(=O)Nc3ccccn3)cc2)ccc1O` is reported as 1.2 z-score and 1.09 z-score.
The nuclei count of `Nc1nc(=S)c2ncn([C@@H]3O[C@H](CO)[C@@H](O)[C@H]3O)c2[nH]1` is reported as -2.52 z-score.
For `Cc1oc2ccccc2c1CNC(=O)NCc1cccs1`, the nuclei count was 0.12 z-score.
`COc1cc(C(=O)N2CCOCC2)cc(OC)c1OC` has a nuclei count of 1.47 z-score.
With `Cc1nc2ccccn2c(=O)c1CCN1CCC(C(=O)c2ccc(F)cc2)CC1` the nuclei count was 1.58 z-score.
`COc1cc(NC(=O)c2cccc(-n3cc(NC(=O)Nc4cccc(C)c4)cn3)c2)cc(OC)c1OC` has a nuclei count of -3.45 z-score.

Series 5 — effect on: cell-free assay; method: competition with immobilised ligand; concentration: 1 µM
Structure (SMILES): CCCCN(CCCC)C(=O)CN1C[C@@H](c2cc(OC)c3c(c2)OCO3)[C@H](C(=O)O)[C@H]1CC(C)(C)CCC
The remaining binding was 88.1% (KDR (Homo sapiens, UniProt P35968)).
STK32C (Homo sapiens, UniProt Q86UX6) — remaining binding: 100%.
KIT (Homo sapiens, UniProt P10721, L576P) — remaining binding: 100%.
EGFR (Homo sapiens, UniProt P00533) — remaining binding: 100%.
The remaining binding was 59.8% (PIP4K2B (Homo sapiens, UniProt P78356)).
For FGR (Homo sapiens, UniProt P09769): remaining binding read 92.4%.
The remaining binding was 65.4% (MAP3K10 (Homo sapiens, UniProt Q02779)).
The remaining binding was 82.4% (TLK1 (Homo sapiens, UniProt Q9UKI8)).
For NEK11 (Homo sapiens, UniProt Q8NG66): remaining binding read 100%.
It gave 100% for remaining binding (RIPK2 (Homo sapiens, UniProt O43353)).
The remaining binding was 100% (STK17A (Homo sapiens, UniProt Q9UEE5)).
The remaining binding was 94.9% (Mast/stem cell growth factor receptor Kit, autoinhibited (KIT, Homo sapiens, UniProt P10721)).
It gave 92.1% for remaining binding (ERBB2 (Homo sapiens, UniProt P04626)).
The remaining binding was 91.7% (PIM1 (Homo sapiens, UniProt P11309)).
It gave 100% for remaining binding (CDK16 (Homo sapiens, UniProt Q00536)).
For CSK (Homo sapiens, UniProt P41240): remaining binding read 100%.
For MAPK3 (Homo sapiens, UniProt P27361): remaining binding read 100%.
